Assay results from different studies.
Numbered parts are unrelated; each lists some results of a single study.

Sample 1 — method: universal PBM; form: double-stranded DNA, one strand shown; medium: in vitro; concentration: not given; direction: higher = stronger binding
Target: Sal-like protein 4, full length isoform B (SALL4, Homo sapiens, UniProt Q9UJQ4-2, residues 1-616)
Notes: 8-mer, flanks averaged, mean of replicates
Residues (chain): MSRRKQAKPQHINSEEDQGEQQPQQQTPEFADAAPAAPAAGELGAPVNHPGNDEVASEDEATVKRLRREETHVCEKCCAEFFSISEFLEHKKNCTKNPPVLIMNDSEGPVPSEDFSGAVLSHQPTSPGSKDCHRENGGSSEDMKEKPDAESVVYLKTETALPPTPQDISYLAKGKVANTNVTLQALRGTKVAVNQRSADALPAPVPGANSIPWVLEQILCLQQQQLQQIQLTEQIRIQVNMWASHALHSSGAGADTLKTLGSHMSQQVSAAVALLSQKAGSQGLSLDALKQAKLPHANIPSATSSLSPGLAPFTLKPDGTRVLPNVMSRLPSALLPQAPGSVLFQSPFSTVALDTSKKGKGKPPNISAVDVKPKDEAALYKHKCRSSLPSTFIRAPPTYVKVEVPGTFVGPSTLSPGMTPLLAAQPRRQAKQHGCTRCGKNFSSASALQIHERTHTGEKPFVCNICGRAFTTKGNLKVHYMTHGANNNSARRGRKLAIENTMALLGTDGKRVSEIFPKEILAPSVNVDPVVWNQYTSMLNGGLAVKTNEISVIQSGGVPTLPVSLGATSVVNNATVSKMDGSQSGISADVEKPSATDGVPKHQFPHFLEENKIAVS
| Oligonucleotide | E-score |
| --- | --- |
| GATTGTCA | 0.141 |
| TAAGCCAA | 0.0729 |
| GCATCCAC | -0.101 |
| TGCGGAAA | 0.127 |
| ATCCTAGC | -0.00088 |
| AAACCTTC | -0.0939 |
| AGTCTGAT | 0.0516 |
| ATTCAGGC | -0.0466 |
| GGGGCGCA | -0.287 |
| CGCGTCGC | -0.281 |
| ACCAAGTA | 0.0161 |
| ATTAGTAG | 0.236 |

Sample 2 — method: protein binding microarray; form: double-stranded DNA, one strand shown; medium: in vitro; concentration: not given; baseline: not given; direction: higher = stronger binding
Target: Histone acetyltransferase KAT6A, both winged helices, GST fusion (KAT6A, Homo sapiens, UniProt Q92794, residues 1-181)
Notes: 8-mer, flanks averaged, mean of 2 arrays, mostly near background
Residues (chain): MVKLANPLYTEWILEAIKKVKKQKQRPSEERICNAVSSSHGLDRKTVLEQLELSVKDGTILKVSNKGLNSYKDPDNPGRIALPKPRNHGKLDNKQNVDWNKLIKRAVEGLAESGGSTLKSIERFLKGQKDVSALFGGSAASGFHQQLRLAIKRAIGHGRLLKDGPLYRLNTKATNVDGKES
| Oligonucleotide | E-score |
| --- | --- |
| GCAGGGAA | -0.113 |
| CACATTCA | -0.185 |
| CTCGCTGA | 0.0618 |
| CAGGCAAA | -0.0867 |
| CAAGTAGC | -0.26 |
| GGGCGTCA | 0.0836 |
| CCACGCGG | 0.232 |
| ACCCGCAT | 0.163 |
| CGGCAGAA | 0.175 |
| CGTTGTGA | 0.0344 |
| TGGTGTAA | -0.002 |
| CTCTTTGC | -0.0982 |
| CCAGCAGC | -0.197 |

Sample 3 — method: RNA Bind-n-Seq; form: RNA; medium: in vitro; concentration: 1 µM; notes: whole 134-nt RNA, ends assumed; together with: 150 mM KCl; baseline: input library; direction: higher = stronger binding
Target: Ras GTPase-activating protein-binding protein 1, C-terminal RGG region (G3BP1, Homo sapiens, UniProt Q13283)
UniProt Q13283, sequence (whole entry, looked up): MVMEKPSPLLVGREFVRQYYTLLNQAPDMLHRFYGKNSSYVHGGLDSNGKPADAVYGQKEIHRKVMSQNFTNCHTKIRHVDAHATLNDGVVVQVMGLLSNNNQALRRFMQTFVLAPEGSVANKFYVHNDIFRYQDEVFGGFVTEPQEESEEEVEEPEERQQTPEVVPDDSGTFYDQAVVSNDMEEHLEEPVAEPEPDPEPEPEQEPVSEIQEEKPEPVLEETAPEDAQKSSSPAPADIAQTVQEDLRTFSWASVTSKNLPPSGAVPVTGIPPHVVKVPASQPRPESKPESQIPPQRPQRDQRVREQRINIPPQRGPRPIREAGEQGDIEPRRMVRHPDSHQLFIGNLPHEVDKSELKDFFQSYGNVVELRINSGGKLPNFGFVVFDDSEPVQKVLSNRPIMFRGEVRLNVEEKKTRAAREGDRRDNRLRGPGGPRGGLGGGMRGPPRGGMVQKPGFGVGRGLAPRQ
| Oligonucleotide | log2 enrichment |
| --- | --- |
| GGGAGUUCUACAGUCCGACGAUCUGGGAGGUGGAUUUUGUUUAUUUUUUUAUCUCAUUUCCAGGGGUGGGAAUUUUUUUUUAAUAUGUGUCAUGAAUAAAGUUGUUUUUGAAAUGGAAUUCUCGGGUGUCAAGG | 4 |
| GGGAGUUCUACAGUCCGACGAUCUCCUGUGCUACACAUCGUAUGUACCGAAUCGGUUUUUUUGGAAAAAAAGGAAAAAAAGGAAAGUAUUAUGUUACGCCGUUCGGAUCUGCAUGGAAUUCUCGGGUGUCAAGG | -1.37 |
| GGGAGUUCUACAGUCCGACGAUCCUCAAGUCCUGUGCUACACAUCGUAUGUACCGAAUCGGGGAGGAGGGGAGGGGAAAGUAUUAUGUUACGCCGUUCGGAUCUGCACUUCCAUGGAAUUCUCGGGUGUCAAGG | 0.604 |
| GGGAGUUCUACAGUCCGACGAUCCACAGACAACACGCACCCACACAGACACAGAGGGAAGGGGUUGGGAUGGGGACAGGGUGAAAAGCAGGGCGGGGUAGGACCCCAGCCCCUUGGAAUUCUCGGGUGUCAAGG | -0.378 |
| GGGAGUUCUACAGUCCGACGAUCAGUCCUGUGCUACACAUCGUAUGUACCGAAUCGGGUUUUUGGGUUUGGGAAAAAGGGAAAGUAUUAUGUUACGCCGUUCGGAUCUGCACUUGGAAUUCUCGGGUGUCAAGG | 0.333 |
| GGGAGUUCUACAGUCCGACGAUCGUCCUGUGCUACACAUCGUAUGUACCGAAUCGGGAAAAAAAGGGUUUUUGGGAAAGGGAAAGUAUUAUGUUACGCCGUUCGGAUCUGCACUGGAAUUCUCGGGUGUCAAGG | -0.643 |
| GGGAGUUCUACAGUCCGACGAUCCAAGUCCUGUGCUACACAUCGUAUGUACCGAAUCGGGGAAAGGGGAAAGGAAAGGAAAGUAUUAUGUUACGCCGUUCGGAUCUGCACUUCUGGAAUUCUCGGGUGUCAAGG | -1.01 |
| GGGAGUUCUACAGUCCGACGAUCAGUCCUGUGCUACACAUCGUAUGUACCGAAUCGGAAAAAAAGGAAAAAGGUUUUUGGAAAGUAUUAUGUUACGCCGUUCGGAUCUGCACUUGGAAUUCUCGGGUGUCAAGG | -2 |
| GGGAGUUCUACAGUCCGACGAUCUUGUUUGAAACAGCAACGCUUCGGUCAGGGUAUCUUUUACCAGACACUAAAGCAUAUGGAGAUAGAAUAGAAAGAAUGCUUCGCCUCAGUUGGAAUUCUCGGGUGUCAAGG | -1.88 |
| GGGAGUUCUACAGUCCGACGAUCCUGUGCUACACAUCGUAUGUACCGAAUCGGGGUUUUUGGGGUUUUUGGGGUUUUUUUGGGGAAAGUAUUAUGUUACGCCGUUCGGAUCUGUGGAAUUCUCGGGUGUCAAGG | 0.209 |
| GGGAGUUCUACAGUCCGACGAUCCUGUGCUACACAUCGUAUGUACCGAAUCGGGAAAAAAAGGGAAAAAAAGGGUUUUUUUGGGAAAGUAUUAUGUUACGCCGUUCGGAUCUGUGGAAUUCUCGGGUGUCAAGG | -1.76 |
| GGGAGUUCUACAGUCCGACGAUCGCAGGAAGUAAAAACAAAUGGAAAUGCUGCGGAUAGUGGCAGGGGUGGGGGUUGCUAAGGAAAGGGUGGGAUGGGAGUGGGUAAAGAGUUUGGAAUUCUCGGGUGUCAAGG | 1.48 |
| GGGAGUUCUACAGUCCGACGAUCAUUUGUACACAGACAGGGAAACUGGCAAGCUGAAGGGAGAGGCAACGGUCUCUUUUGAUGACCCACCUUCAGCUAAAGCAGCUAUUGACUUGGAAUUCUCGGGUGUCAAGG | -0.59 |
| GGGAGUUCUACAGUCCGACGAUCUAACUUUAGGGGAGGAUCUGAUGGAUAUGGCAGUGGACGUGGAUUUGGGGAUGGCUAUAAUGGGUAUGGAGGAGGACCUGGAGGUGGCAAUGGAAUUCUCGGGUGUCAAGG | -0.976 |

Mixed results
| Substance | target | assay | test system | setting | scale | quantity | value |
| --- | --- | --- | --- | --- | --- | --- | --- |
| PhoQ, residues 284 288 289 292 302 303 SVTLVV | PhoP, residues 12 14 15 18 19 LQHIR (Escherichia coli, UniProt P23836) | Sort-seq, item: YFP reporter | E. coli | PhoQ-PhoP variant library, together with: 10 µM Mg2+ | baseline: high Mg2+ state, higher = stronger signaling | fold induction | 6.02 |

Excerpt of the above (sample 2):
| Oligonucleotide | E-score |
| --- | --- |
| TGGTGTAA | -0.002 |
| CTCTTTGC | -0.0982 |
